Measured values collected from several papers.
Every numbered part comes from another study and shows a few of its results, in no order. “And” joins repeats or separate records; there may be more than shown.
Sequence of UniProt O75676 (whole entry, looked up): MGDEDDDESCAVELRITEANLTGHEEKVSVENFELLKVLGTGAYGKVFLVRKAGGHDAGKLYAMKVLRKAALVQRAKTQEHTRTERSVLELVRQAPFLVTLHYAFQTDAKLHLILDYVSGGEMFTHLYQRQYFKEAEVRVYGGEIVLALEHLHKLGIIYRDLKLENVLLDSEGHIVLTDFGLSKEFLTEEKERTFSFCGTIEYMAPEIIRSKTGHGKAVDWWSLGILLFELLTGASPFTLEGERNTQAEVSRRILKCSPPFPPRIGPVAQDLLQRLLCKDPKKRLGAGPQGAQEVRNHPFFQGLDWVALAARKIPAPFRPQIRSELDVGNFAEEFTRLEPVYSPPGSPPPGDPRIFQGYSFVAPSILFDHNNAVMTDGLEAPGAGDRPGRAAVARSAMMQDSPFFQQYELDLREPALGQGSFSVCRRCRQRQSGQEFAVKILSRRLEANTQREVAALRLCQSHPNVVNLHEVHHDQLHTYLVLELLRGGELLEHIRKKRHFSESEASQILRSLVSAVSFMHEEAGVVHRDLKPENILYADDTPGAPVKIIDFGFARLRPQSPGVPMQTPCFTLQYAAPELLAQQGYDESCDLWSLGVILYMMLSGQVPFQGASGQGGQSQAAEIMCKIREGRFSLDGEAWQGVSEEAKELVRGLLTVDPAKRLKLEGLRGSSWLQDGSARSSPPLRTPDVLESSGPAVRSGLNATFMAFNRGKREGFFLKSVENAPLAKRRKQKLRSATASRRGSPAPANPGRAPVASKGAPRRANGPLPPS
Sequence of UniProt O00750 (whole entry, looked up): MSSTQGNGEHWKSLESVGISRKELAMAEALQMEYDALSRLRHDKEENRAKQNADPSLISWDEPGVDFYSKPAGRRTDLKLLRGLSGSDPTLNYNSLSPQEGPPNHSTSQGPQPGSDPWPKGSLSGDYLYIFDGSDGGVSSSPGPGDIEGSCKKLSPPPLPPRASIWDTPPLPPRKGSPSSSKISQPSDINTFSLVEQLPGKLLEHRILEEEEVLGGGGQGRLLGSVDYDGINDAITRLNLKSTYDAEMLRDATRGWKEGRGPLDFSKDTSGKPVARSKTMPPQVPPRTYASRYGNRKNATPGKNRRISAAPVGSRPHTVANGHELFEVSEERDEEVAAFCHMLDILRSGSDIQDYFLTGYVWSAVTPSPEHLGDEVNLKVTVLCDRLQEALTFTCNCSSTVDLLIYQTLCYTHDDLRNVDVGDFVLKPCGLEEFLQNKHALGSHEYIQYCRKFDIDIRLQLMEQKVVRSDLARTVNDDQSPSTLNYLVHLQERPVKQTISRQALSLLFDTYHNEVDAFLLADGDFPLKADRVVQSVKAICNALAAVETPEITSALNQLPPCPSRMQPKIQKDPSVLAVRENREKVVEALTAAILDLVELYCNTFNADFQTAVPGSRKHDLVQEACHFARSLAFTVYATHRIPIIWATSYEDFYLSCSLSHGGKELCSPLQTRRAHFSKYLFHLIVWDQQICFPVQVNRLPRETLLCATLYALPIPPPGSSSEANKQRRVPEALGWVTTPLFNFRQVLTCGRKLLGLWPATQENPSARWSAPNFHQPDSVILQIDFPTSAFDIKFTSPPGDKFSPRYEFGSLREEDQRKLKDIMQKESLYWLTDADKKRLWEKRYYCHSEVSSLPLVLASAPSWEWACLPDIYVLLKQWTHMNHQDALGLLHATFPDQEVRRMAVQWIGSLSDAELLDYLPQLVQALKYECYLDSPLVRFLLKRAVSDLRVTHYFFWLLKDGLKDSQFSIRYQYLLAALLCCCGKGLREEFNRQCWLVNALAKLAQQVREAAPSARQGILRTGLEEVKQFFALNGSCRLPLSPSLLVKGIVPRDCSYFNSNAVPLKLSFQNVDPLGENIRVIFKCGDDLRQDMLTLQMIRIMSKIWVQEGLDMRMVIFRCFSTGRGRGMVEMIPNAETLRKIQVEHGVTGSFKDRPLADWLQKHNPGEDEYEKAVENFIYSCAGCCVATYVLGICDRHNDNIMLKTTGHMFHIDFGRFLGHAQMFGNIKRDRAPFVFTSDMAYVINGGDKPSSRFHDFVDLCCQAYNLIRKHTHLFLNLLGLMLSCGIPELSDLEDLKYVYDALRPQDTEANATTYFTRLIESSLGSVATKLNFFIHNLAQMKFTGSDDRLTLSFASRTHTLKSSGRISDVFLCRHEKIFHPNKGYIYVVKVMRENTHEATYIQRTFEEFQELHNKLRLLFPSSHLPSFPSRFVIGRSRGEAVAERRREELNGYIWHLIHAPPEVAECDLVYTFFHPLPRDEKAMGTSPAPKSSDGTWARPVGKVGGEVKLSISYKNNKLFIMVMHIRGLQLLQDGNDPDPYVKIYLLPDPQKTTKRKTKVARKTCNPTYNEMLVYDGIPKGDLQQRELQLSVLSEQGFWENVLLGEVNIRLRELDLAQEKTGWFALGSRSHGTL
Sequence of UniProt P08581 (whole entry, looked up): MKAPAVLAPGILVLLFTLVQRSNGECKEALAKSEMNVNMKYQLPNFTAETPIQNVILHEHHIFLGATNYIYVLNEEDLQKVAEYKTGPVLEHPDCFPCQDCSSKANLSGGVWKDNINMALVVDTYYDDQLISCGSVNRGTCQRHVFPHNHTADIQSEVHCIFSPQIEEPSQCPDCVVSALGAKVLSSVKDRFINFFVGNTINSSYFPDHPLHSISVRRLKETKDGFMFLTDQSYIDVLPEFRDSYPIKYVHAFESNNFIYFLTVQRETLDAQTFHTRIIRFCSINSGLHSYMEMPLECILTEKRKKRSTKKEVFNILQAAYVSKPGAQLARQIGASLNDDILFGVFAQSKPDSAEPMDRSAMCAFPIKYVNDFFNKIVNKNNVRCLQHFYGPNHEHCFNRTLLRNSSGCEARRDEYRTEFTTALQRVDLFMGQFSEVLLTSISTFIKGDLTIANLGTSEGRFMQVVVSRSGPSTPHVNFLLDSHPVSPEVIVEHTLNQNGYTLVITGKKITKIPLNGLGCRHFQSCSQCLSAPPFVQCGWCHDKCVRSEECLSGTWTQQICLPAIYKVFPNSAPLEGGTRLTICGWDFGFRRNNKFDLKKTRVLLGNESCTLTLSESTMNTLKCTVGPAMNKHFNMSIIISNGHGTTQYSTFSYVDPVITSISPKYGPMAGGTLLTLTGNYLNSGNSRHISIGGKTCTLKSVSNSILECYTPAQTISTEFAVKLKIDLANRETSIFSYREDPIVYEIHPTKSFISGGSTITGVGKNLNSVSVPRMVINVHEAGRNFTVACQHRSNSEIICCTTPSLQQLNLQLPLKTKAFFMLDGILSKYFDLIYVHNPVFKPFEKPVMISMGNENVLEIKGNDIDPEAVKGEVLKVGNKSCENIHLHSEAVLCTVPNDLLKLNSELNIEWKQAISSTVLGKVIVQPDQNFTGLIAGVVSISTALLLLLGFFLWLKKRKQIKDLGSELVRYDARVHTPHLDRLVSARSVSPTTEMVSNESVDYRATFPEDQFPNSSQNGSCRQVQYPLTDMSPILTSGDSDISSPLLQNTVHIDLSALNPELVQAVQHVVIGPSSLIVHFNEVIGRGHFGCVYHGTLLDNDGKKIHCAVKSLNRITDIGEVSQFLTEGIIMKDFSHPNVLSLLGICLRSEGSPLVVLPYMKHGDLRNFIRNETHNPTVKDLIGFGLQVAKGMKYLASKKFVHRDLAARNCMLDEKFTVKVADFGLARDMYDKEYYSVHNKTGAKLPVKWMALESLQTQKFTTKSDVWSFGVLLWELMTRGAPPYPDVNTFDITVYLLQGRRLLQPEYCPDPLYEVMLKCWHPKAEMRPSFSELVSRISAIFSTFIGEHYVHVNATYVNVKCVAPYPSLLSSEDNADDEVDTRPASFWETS
Sequence of UniProt Q13177 (whole entry, looked up): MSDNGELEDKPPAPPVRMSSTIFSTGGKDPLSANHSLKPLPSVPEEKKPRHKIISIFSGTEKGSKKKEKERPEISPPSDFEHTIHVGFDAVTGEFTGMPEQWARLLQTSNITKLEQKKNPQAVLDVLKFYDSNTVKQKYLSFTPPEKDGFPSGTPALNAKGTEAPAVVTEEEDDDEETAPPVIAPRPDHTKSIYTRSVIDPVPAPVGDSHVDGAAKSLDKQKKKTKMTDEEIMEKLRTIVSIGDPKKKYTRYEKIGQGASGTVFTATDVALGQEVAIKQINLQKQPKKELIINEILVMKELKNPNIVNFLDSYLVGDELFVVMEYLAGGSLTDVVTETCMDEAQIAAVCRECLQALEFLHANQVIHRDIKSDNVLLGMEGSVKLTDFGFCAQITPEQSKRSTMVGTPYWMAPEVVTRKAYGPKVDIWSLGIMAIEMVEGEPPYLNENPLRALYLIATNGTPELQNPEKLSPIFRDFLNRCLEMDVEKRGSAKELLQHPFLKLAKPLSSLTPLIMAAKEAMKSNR
Sequence of UniProt Q9UQM7 (whole entry, looked up): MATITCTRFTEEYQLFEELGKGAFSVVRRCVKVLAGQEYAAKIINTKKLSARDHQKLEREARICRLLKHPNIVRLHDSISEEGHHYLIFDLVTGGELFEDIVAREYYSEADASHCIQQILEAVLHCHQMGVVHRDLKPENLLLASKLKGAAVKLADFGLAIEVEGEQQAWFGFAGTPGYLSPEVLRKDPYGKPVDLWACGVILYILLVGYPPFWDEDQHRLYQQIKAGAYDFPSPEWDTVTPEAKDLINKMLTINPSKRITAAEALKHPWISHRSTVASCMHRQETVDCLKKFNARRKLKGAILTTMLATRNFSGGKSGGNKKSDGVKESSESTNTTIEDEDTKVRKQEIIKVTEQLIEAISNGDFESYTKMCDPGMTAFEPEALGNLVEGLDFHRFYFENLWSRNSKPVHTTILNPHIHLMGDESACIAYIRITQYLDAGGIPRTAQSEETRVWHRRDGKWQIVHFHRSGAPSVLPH
Sequence of UniProt P06493 (whole entry, looked up): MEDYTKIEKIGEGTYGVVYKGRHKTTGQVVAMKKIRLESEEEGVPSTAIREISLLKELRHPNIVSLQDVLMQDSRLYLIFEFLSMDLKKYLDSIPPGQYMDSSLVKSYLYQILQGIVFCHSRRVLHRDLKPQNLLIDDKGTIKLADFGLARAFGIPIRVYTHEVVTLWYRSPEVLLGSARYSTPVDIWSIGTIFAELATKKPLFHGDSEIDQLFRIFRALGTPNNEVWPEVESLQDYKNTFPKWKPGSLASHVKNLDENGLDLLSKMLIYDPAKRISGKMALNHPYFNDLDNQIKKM

Sample 1
SMILES: O=C1c2ccccc2-c2nc3nnnn3nc21
Effect on: enzyme activity
Action: inhibitor
Concentration: 0.5 µM
Relative to: control
It gave 72.2% for remaining activity (Ribosomal protein S6 kinase alpha-4 (RPS6KA4, Homo sapiens, UniProt O75676)).
It gave 83.3% for remaining activity (Hepatocyte growth factor receptor (MET, Homo sapiens, UniProt P08581)).
The remaining activity was 28.5% (Serine/threonine-protein kinase PLK3 (PLK3, Homo sapiens, UniProt Q9H4B4)).
The remaining activity was 55.8% (RAC-beta serine/threonine-protein kinase (AKT2, Homo sapiens, UniProt P31751)).
Discoidin domain-containing receptor 2 (DDR2, Homo sapiens, UniProt Q16832) — remaining activity: 58.7%.
It gave 68.4% for remaining activity (G protein-coupled receptor kinase 4 (GRK4, Homo sapiens, UniProt P32298)).
Myosin-IIIb (MYO3B, Homo sapiens, UniProt Q8WXR4) — remaining activity: 88.4%.
Cyclin-dependent kinase 1, with cyclin A (CDK1, Homo sapiens, UniProt P06493) — remaining activity: 48.9%.
The remaining activity was 81.2% (Dual specificity protein kinase CLK3 (CLK3, Homo sapiens, UniProt P49761)).
It gave 97.1% for remaining activity (Serine/threonine-protein kinase PAK 3 (PAK3, Homo sapiens, UniProt O75914)).
Serine/threonine-protein kinase MRCK beta (CDC42BPB, Homo sapiens, UniProt Q9Y5S2) — remaining activity: 82.6%.
It gave 78.3% for remaining activity (Dual specificity protein kinase CLK4 (CLK4, Homo sapiens, UniProt Q9HAZ1)).
Serine/threonine-protein kinase MARK2 (MARK2, Homo sapiens, UniProt Q7KZI7) — remaining activity: 94.2%.
The remaining activity was 83.4% (Calcium/calmodulin-dependent protein kinase type 1B (PNCK, Homo sapiens, UniProt Q6P2M8)).

Sample 2
Structure (SMILES): CCOCCn1cc(C(=O)Nc2ccc(-n3nc(-c4cccnc4)cc3C(F)(F)F)cn2)ccc1=O
Effect on: cell-free assay
Technique: competition with immobilised ligand
Concentration: 1 µM
It gave 74% for remaining binding (Rho-associated protein kinase 1 (ROCK1, Homo sapiens, UniProt Q13464)).
The remaining binding was 100% (Tyrosine-protein kinase ABL1, phosphorylated (ABL1, Homo sapiens, UniProt P00519, M351T)).
Serine/threonine-protein kinase 3 (STK3, Homo sapiens, UniProt Q13188) — remaining binding: 100%.
It gave 47% for remaining binding (Serine/threonine-protein kinase NLK (NLK, Homo sapiens, UniProt Q9UBE8)).
For Ribosomal protein S6 kinase alpha-4, C-terminal kinase domain (RPS6KA4, Homo sapiens, UniProt O75676): remaining binding read 80%.
The remaining binding was 72% (Phosphatidylinositol 4-phosphate 3-kinase C2 domain-containing subunit beta (PIK3C2B, Homo sapiens, UniProt O00750)).
The remaining binding was 84% (Serine/threonine-protein kinase PAK 2 (PAK2, Homo sapiens, UniProt Q13177)).
It gave 93% for remaining binding (Calcium/calmodulin-dependent protein kinase type II subunit alpha (CAMK2A, Homo sapiens, UniProt Q9UQM7)).
Serine/threonine-protein kinase BRSK1 (BRSK1, Homo sapiens, UniProt Q8TDC3) — remaining binding: 100%.
Mast/stem cell growth factor receptor Kit (KIT, Homo sapiens, UniProt P10721, L576P) — remaining binding: 94%.
For Citron Rho-interacting kinase (CIT, Homo sapiens, UniProt O14578): remaining binding read 97%.
For Serine/threonine-protein kinase 4 (STK4, Homo sapiens, UniProt Q13043): remaining binding read 100%.
It gave 100% for remaining binding (Serine/threonine-protein kinase DCLK3 (DCLK3, Homo sapiens, UniProt Q9C098)).

Sample 3
Species: human
Sample: microsomes or S9
Concentration: 2 µM
Time: 0.5 h
With COc1cc(=O)[nH]cc1C(=O)N1CCCC1c1ccc(O)cc1 (stereo not drawn) the remaining compound was > 99%.
For CCN(CC)S(=O)(=O)c1ccc(C(=O)Nc2sc3c(c2C(N)=O)CC(C)(C)NC3(C)C)cc1, the remaining compound was 9.34%.
For C=CCO/N=C/c1cn(CC=C)c2ccc(OC)cc12, the remaining compound was 68.8%.
For O=C1CCCC2=C1C(c1ccc3c(c1)OCO3)Nc1ccc(C(=O)c3ccccc3)cc1N2 (stereo not drawn), the remaining compound was 18.6%.
With Nc1ncc(Br)cc1S(=O)(=O)N1CCC(Oc2ccncc2)C1 (stereo not drawn) the remaining compound was 62.9%.

Other studies, line by line
CC(=O)N[C@@H](Cc1c[nH]c2ccccc12)C(=O)N[C@@H](CCC(=O)C=[N+]=[N-])C(=O)OC(C)C — result for “pyridoxamine phosphate level”: 487000 a.u. and 968000 a.u. and 880000 a.u. and 592000 a.u. and 1.16e+06 a.u. and 835000 a.u. (UPLC-MS/MS; EL4 tumor, C57BL/6 CES1-/- mice, tumor; subcutaneous, 0.3 mg/kg DON equivalent daily, 5 days; higher = more metabolite).

Excerpt of the above (sample 1):
The remaining activity was 55.8% (RAC-beta serine/threonine-protein kinase (AKT2, Homo sapiens, UniProt P31751)).
Discoidin domain-containing receptor 2 (DDR2, Homo sapiens, UniProt Q16832) — remaining activity: 58.7%.
It gave 68.4% for remaining activity (G protein-coupled receptor kinase 4 (GRK4, Homo sapiens, UniProt P32298)).
